{"data": "Experimental data collected from several papers", "note": "Parts stem from different laboratories: compare values within a part only.", "UniProt Q15418, sequence (whole entry, looked up)": "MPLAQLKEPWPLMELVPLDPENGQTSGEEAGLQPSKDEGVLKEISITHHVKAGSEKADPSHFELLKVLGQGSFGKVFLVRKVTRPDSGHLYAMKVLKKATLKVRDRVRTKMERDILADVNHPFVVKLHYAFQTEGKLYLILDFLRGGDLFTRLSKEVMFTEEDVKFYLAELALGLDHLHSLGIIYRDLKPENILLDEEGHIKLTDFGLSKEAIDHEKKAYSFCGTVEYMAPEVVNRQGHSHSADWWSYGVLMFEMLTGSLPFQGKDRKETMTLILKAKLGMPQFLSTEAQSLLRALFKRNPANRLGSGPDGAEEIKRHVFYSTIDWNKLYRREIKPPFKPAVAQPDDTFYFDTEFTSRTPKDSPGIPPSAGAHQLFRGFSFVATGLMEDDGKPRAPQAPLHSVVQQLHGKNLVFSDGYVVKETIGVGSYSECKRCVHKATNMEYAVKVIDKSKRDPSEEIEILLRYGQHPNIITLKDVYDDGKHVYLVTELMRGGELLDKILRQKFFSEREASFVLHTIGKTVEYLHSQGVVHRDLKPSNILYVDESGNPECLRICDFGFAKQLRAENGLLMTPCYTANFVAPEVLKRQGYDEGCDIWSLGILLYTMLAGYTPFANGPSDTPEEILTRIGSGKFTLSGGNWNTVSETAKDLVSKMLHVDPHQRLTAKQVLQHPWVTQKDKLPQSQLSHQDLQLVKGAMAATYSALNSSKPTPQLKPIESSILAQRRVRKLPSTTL", "UniProt Q8N5S9, sequence (whole entry, looked up)": "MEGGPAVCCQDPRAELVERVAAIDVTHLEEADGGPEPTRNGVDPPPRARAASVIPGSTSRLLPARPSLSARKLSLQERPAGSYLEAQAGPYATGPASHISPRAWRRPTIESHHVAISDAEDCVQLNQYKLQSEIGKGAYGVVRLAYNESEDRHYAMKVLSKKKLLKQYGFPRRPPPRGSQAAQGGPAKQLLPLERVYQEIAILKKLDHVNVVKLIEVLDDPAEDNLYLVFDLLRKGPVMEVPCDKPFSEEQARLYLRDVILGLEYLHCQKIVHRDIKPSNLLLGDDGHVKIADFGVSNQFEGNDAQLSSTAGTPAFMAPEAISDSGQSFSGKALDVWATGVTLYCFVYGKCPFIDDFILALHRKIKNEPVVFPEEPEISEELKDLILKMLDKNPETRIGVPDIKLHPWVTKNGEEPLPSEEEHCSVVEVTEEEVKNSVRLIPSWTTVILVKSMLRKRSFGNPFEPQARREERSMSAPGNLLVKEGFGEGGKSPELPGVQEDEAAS", "UniProt P48730, sequence (whole entry, looked up)": "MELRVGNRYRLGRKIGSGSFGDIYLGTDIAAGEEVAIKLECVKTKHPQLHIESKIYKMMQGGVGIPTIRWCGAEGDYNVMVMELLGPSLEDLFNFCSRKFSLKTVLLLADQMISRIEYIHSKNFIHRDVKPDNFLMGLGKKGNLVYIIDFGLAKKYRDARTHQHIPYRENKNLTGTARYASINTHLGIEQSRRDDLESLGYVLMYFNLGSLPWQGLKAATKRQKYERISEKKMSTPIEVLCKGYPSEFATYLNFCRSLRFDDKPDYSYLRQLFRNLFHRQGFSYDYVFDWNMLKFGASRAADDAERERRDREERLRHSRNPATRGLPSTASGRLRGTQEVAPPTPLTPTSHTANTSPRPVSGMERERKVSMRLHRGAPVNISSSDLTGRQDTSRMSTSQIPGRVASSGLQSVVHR", "UniProt P45985, sequence (whole entry, looked up)": "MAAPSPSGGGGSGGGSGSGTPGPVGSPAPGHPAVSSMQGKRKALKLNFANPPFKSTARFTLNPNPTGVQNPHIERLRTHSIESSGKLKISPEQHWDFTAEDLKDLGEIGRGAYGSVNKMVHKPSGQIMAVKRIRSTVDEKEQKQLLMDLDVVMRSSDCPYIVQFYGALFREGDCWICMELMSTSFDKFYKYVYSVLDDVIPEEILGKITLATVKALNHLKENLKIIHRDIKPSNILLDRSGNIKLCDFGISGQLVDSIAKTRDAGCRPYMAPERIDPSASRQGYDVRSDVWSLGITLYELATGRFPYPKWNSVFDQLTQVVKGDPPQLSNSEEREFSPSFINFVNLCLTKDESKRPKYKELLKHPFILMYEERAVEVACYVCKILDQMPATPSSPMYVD"}
{"data": "Series 1", "target": "Protein kinase C theta type (PRKCQ, Homo sapiens, UniProt Q04759)", "observed": "enzyme activity", "mode": "inhibitor", "tested at": "0.5 µM", "reference": "control", "UniProt Q04759, sequence (whole entry, looked up)": "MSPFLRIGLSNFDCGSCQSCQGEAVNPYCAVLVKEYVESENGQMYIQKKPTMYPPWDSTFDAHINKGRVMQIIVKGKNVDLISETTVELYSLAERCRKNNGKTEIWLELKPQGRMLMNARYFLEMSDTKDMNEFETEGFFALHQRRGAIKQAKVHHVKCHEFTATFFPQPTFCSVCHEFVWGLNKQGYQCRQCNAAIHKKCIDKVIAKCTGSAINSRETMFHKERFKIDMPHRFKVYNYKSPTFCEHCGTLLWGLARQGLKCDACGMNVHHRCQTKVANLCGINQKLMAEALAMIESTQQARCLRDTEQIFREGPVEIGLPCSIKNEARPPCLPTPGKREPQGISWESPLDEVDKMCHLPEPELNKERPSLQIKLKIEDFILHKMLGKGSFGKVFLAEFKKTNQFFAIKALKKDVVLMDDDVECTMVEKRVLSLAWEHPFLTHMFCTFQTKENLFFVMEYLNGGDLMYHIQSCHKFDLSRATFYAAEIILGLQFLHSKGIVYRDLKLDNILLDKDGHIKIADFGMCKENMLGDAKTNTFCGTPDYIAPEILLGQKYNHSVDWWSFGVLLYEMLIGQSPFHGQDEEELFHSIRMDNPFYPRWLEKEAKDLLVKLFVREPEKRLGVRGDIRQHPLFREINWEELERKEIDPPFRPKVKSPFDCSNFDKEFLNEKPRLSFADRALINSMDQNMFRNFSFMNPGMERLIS"}
{"SMILES": "Cc1cccc(-c2[nH]c(C(C)(C)C)nc2-c2ccc3c(c2)OCO3)n1", "remaining activity [%]": 107}
{"SMILES": "N#CC(C#N)=C(N)/C(C#N)=C/c1ccc(O)cc1", "remaining activity [%]": 99.8}
{"SMILES": "Cn1sc(=O)n(Cc2ccccc2)c1=O", "remaining activity [%]": 100}
{"SMILES": "COc1ccc(C(=O)Nc2sc3c(c2C(N)=O)CCCC3)cc1OC", "remaining activity [%]": 97.5}
{"SMILES": "C#Cc1cccc(Nc2ncnc3cc(OCCOC)c(OCCOC)cc23)c1", "remaining activity [%]": 77.2}
{"SMILES": "CC(C)[C@H](CO)Nc1nc(Nc2cc(N)cc(Cl)c2)c2ncn(C(C)C)c2n1", "remaining activity [%]": 119}
{"SMILES": "COc1ccc(OC)c2c(=S)c3ccccc3[nH]c12", "remaining activity [%]": 98.9}
{"SMILES": "CO[C@H]1C[C@@H]2CC[C@@H](C)[C@@](O)(O2)C(=O)C(=O)N2CCCC[C@H]2C(=O)O[C@H]([C@H](C)C[C@@H]2CC[C@@H](O)[C@H](OC)C2)CC(=O)[C@H](C)/C=C(\\C)[C@@H](O)[C@@H](OC)C(=O)[C@H](C)C[C@H](C)/C=C/C=C/C=C/1C", "remaining activity [%]": 126}
{"SMILES": "Nc1[nH]nc2nc3ccccc3nc12", "remaining activity [%]": 89.7}
{"SMILES": "OCC(O)CCON=C1C(c2c(O)[nH]c3ccccc23)=Nc2ccccc21 (stereo not drawn)", "remaining activity [%]": 92.9}
{"SMILES": "O=C(CCCc1ccc(-c2ccccc2F)cc1)Nc1ccc(O)cc1", "remaining activity [%]": 107}
{"SMILES": "Cc1nc(-c2ccccc2)c(-c2ccncc2)o1", "remaining activity [%]": 120}
{"SMILES": "COc1cc2ncnc(Nc3ccc(Oc4ccccc4)cc3)c2cc1OC", "remaining activity [%]": 124}
{"SMILES": "Cc1ccc(Nc2nccc(N(C)c3ccc4c(C)n(C)nc4c3)n2)cc1S(N)(=O)=O", "remaining activity [%]": 93.1}
{"SMILES": "COc1ccc(CNC(=O)Nc2ncc([N+](=O)[O-])s2)cc1", "remaining activity [%]": 96.9}
{"SMILES": "O=C1NC(=O)C(c2cn(CCCn3ccnc3)c3ccccc23)=C1Nc1ccccc1", "remaining activity [%]": 37.2}
{"data": "Series 2", "target": "Max-binding protein MNT, bHLH-zipper, MAX partner unstated (MNT, Homo sapiens, UniProt Q99583, residues 220-300)", "method": "protein-binding microarray", "form": "double-stranded DNA, one strand shown", "sample": "in vitro", "tested at": "not given", "notes": "k-mer, scored over probes, only values ≥0.25", "reading": "higher = stronger binding", "Construct (chain)": "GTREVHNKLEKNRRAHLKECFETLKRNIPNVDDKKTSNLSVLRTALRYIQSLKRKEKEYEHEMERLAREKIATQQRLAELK"}
{"Strand": "CCCCCGCC", "E-score": 0.274}
{"Strand": "ACATGTTC", "E-score": 0.342}
{"Strand": "CATGGCGG", "E-score": 0.336}
{"Strand": "ATGTGCTG", "E-score": 0.356}
{"Strand": "CATGCCAC", "E-score": 0.372}
{"Strand": "CGTGACCA", "E-score": 0.389}
{"Strand": "ACGTGGCA", "E-score": 0.456}
{"Strand": "AAGGCATG", "E-score": 0.335}
{"data": "Series 3", "SMILES": "COc1ccc2c(c1)O[C@@H](c1ccc(OC)c(OC)c1)C[C@H]2NC(=O)C1(c2ccc3c(c2)OC(F)(F)O3)CC1", "observed": "cell-free assay", "method": "competition with immobilised ligand", "tested at": "1 µM"}
{"target": "MAP2K4 (Homo sapiens, UniProt P45985)", "remaining binding [%]": 92}
{"target": "CSNK1D (Homo sapiens, UniProt P48730)", "remaining binding [%]": 100}
{"target": "CAMKK1 (Homo sapiens, UniProt Q8N5S9)", "remaining binding [%]": 89}
{"target": "Ribosomal protein S6 kinase alpha-1, N-terminal kinase domain (RPS6KA1, Homo sapiens, UniProt Q15418)", "remaining binding [%]": 98}
{"data": "Series 4", "target": "Ras GTPase-activating protein-binding protein 1, C-terminal RGG region (G3BP1, Homo sapiens, UniProt Q13283)", "method": "RNA Bind-n-Seq", "form": "RNA", "sample": "in vitro", "tested at": "1 µM", "notes": "whole 134-nt RNA, ends assumed", "with": "150 mM KCl", "reference": "input library", "reading": "higher = stronger binding", "UniProt Q13283, sequence (whole entry, looked up)": "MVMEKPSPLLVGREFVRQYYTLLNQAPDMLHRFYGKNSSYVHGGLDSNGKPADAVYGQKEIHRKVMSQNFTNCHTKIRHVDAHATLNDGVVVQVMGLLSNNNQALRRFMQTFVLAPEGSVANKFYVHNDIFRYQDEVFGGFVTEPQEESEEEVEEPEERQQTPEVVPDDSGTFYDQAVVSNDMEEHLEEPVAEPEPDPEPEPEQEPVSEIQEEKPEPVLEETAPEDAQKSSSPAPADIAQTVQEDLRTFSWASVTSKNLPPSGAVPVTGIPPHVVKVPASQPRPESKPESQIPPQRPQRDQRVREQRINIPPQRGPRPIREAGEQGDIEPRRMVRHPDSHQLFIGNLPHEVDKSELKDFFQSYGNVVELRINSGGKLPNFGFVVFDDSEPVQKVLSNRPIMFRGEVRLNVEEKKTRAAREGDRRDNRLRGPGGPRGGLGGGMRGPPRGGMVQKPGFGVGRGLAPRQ"}
{"Strand": "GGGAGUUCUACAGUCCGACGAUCGCAGGAAGUAAAAACAAAUGGAAAUGCUUCGGAAAAUGGCAGGGGUGGGGGUUGCUAAGGAAAGGGUGGGAUGGGAGUGGGUAAAGAGUUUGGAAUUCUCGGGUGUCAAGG", "log2 enrichment": 1.85}
{"Strand": "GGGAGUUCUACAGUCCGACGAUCUCCUGUGCUACACAUCGUAUGUACCGAAUCGGGGUUUGGGGUUUUUGGGGUUUUUGGGGAAAGUAUUAUGUUACGCCGUUCGGAUCUGCAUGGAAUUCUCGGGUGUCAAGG", "log2 enrichment": 2.26}
{"Strand": "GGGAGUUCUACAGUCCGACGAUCUCAAGUCCUGUGCUACACAUCGUAUGUACCGAAUCGGUUUGGUUUGGAAAAAGGAAAGUAUUAUGUUACGCCGUUCGGAUCUGCACUUCCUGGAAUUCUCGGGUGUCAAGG", "log2 enrichment": -1.36}
{"Strand": "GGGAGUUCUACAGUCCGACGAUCACCAUGCAGGUGGGCAUCUUUGGGAAGUGGGGCAAGGGGGGGAUAGGGAGGGGGGUAACACUUUGGGAACAGGUGGUCCCAGGUCGUAUCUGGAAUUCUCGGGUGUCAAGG", "log2 enrichment": 1.44}
{"Strand": "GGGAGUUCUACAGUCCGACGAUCUGGCCCUGGUGGCAUGCGGGGAGGAAGAGGUGGCCUCAUGGAUCGUGGUGGUCCCGGUGGCAUGUUCAGAGGUGGCCGUGGUGGAGACAGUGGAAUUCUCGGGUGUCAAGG", "log2 enrichment": 2.47}
{"Strand": "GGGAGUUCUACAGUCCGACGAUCUGUGACAGGAGAGCGCUUGAAGAGCAAUGUGACGAGGACCAUCAGACACCGAGGGAUGGAGAGACAUCCCACAGGGCCCAGAUUCAGCAGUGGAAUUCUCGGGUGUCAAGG", "log2 enrichment": -0.304}
{"Strand": "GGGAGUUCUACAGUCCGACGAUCCACAGACAACACGCACCCACACAGACACAGAGGGAAGGGGUUGGGAUGGGGACAGGGUGCACCGCAGGGCGGGGUAGGACCCCAGCCCCUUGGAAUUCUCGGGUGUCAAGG", "log2 enrichment": -0.589}
{"Strand": "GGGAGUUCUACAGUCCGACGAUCCACGGACAACACGCACCCACACAGACACAGAGGGAAGGGGUUGGGAUGGGGACAGGGUGCACAGCAGGGCGGGGUAGGACCCCAGCCCCUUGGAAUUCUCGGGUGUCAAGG", "log2 enrichment": -0.227}
{"note": "Some of these lines once more (series 1):"}
{"SMILES": "Cc1nc(-c2ccccc2)c(-c2ccncc2)o1", "remaining activity [%]": 120}
{"SMILES": "CC(C)[C@H](CO)Nc1nc(Nc2cc(N)cc(Cl)c2)c2ncn(C(C)C)c2n1", "remaining activity [%]": 119}
{"SMILES": "CO[C@H]1C[C@@H]2CC[C@@H](C)[C@@](O)(O2)C(=O)C(=O)N2CCCC[C@H]2C(=O)O[C@H]([C@H](C)C[C@@H]2CC[C@@H](O)[C@H](OC)C2)CC(=O)[C@H](C)/C=C(\\C)[C@@H](O)[C@@H](OC)C(=O)[C@H](C)C[C@H](C)/C=C/C=C/C=C/1C", "remaining activity [%]": 126}
{"SMILES": "COc1ccc(C(=O)Nc2sc3c(c2C(N)=O)CCCC3)cc1OC", "remaining activity [%]": 97.5}
